Experimental data of several laboratories.
Every numbered part comes from another study and shows a few of its results, in no order. Positions count from the first letter of the parent shown.

Series 1
Target: JDP2, bZIP domain (human)
Technique: DHFR protein complementation
Medium: yeast
Setting: single substitutions, most at no-binding floor
Relative to: wild-type JUN-FOS pair
Reading: higher = stronger binding
Measurement: binding fitness
Starting sequence: JUN, bZIP domain (human); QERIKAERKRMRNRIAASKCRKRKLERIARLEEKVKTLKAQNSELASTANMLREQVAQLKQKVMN; partner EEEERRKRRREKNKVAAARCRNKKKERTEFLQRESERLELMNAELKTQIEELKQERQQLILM
L31G: 0.0508 natural log
E33F: 0.215 natural log
M51K: 0.272 natural log
M51P: -0.165 natural log
L45P: -1.14 natural log
L38I: 0.0283 natural log
V56E: -0.741 natural log
A29C: 0.167 natural log
E44Y: 0.133 natural log
A49R: 0.29 natural log
K36N: 0.32 natural log
L59R: -0.341 natural log
A40E: 0.327 natural log
V56C: 0.205 natural log
T37Y: 0.272 natural log
L38D: -0.141 natural log
L59S: -0.17 natural log
L38P: -1.08 natural log
A57H: 0.289 natural log
S47H: 0.224 natural log
A57S: 0.169 natural log
R30V: 0.413 natural log
S43Q: 0.327 natural log
L52H: -0.0833 natural log
L52K: -0.588 natural log

Series 2
Target: Max dimerization protein 1, bHLH-zipper, MAX partner unstated (MXD1, Homo sapiens, UniProt Q05195, residues 56-136)
Technique: protein-binding microarray
Form: double-stranded DNA, one strand shown
Medium: in vitro
Concentration: not given
Setting: k-mer, scored over probes, only values ≥0.25
Reading: higher = stronger binding
Measurement: E-score
Target sequence (chain): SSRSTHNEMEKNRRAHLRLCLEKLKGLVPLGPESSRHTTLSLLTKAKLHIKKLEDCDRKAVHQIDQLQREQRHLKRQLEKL
ACATGTGA: 0.462
CGACCGCC: 0.266
ACATGCCA: 0.381
GCGTGCAC: 0.388
AGGCATGG: 0.425
GGGCGTGA: 0.295
ACACGTTC: 0.345
ATGTGGCC: 0.268
ACGCGCGG: 0.262
GCGTGGAC: 0.377
CATGCTCA: 0.351
GCCCACGC: 0.375
GCCCCCAC: 0.257
GCACGCTA: 0.319
CGTGAAAC: 0.258

Series 3
Target: ABI1, truncated, D143A, DHFR fusion (Arabidopsis thaliana)
Technique: DHFR PCA, deep sequencing
Medium: yeast
Setting: methotrexate growth selection, single substitutions
With: (+)-ABA 2500 µM
Relative to: wild-type fitted maximum
Reading: higher = stronger binding
Measurement: relative binding score
Starting sequence: PYL1, truncated, DHFR fusion (Arabidopsis thaliana); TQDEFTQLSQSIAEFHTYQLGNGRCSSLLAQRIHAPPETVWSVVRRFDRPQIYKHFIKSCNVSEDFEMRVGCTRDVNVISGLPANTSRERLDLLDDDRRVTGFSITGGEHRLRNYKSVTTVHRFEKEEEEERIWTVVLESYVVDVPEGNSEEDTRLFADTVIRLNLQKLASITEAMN; partner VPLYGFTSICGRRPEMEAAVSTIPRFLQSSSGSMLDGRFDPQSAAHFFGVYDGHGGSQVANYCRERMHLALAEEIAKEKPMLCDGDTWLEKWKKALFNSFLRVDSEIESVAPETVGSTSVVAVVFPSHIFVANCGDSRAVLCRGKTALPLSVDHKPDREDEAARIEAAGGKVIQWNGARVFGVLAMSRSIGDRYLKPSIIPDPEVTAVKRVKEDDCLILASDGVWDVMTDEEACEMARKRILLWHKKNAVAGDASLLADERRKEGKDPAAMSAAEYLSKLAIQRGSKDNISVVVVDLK
S27L: 11.8%
T1V: 96.4%
T135P: 18.6%
R155N: 91%
S150F: 81.5%
A170W: 64.1%
E152M: 96.7%
S104C: 85.1%
S87N: 18.8%
N61I: 101%
V145F: 74.3%
E139L: 90.2%
N77R: 99.2%
G107Q: 95.9%
P83V: 51%
N165L: 2.27%
Y115N: -16.8%
T135H: 3.72%
R99H: 103%

Series 4
Target: CCNF, cyclin fold, Cln2 fusion (human)
Technique: yeast growth competition, sequencing
Medium: yeast
Setting: strong parent motif
Relative to: not given
Reading: higher = stronger binding
Measurement: normalised enrichment score
Starting sequence: GMNC docking peptide (human); KNAKRNLSSEFAN
KNAHRNLSSEFAN [K4H]: 0.233
KNAKRNLASEFAN [S8A]: 0.742
KNAKANLSSEFAN [R5A]: 0.336
KNAKRKLSSEFAN [N6K]: 0.595
KNAKTNLSSEFAN [R5T]: 0.651
KNAKRNNSSEFAN [L7N]: 0.0133
KNAKRNLSSEVAN [F11V]: 0.138
KNVKRNLSSEFAN [A3V]: 1.65
KNAKRNLSFEFAN [S9F]: 3.95
KFAKRNLSSEFAN [N2F]: 1.02
KNALRNLSSEFAN [K4L]: 0.319
KNAKRNLSSVFAN [E10V]: 1.02
KNAKRNLSSEEAN [F11E]: 0.0337
KNAKRNLHSEFAN [S8H]: 0.7
KNAKRNLSREFAN [S9R]: 1.38
KNAKRNLSSIFAN [E10I]: 1.1
KNAKRNLSSGFAN [E10G]: 0.593
KNAKRNLSSSFAN [E10S]: 0.825
KNAKRNLNSEFAN [S8N]: 1.38
KNAKRNLDSEFAN [S8D]: 1.06
KNAKRELSSEFAN [N6E]: 0.634
KNHKRNLSSEFAN [A3H]: 0.497
KNAKWNLSSEFAN [R5W]: 0.537
KNAKRNLSSEFRN [A12R]: 0.69
KNAKYNLSSEFAN [R5Y]: -0.132

Series 5
Target: UBE2T UBC core domain (UniProt Q9NPD8)
Technique: yeast two-hybrid
Medium: yeast
Setting: mostly zero background
Relative to: not given
Reading: higher = stronger interaction
Measurement: lacZ reporter activity
B1: DTX4 RING domain (UniProt Q9Y2E6); chain QKVRHPPDEDCTICMERLTAPSGYKGPQPTVKPDLVGKLSRCGHVYHIYCLVAMYNNGNKDGSLQCPTCKTIYGVKTGTQ
B2: TRIM13 RING domain (UniProt O60858); chain MELLEEDLTCPICCSLFDDPRVLPCSHNFCKKCLEGILEGSVRNSLWRPAPFKCPTCRKETSATGINS
B3: SH3RF2 RING domain (UniProt Q8TEC5); chain DDLTLLDLLECPVCFEKLDVTAKVLPCQHTFCKPCLQRVFKAHKELRCPECRTPVFSNIEAL
B4: NEURL1 RING domain (UniProt O76050); chain VTPGLGQWSDECTICYEHAVDTVIYTCGHMCLCYACGLRLKKALHACCPICRRPIKDIIKT
B5: VPS41 RING domain (UniProt P49754); chain KGVLVDEENICESCLSPILPSDAAKPFSVVVFHCRHMFHKECLPMPSMNSAAQFCNICSAKNRGPGSAI
B6: RNF208 RING domain (UniProt Q9H0X6); chain SSAAAGEPLECPTCGHSYNVTQRRPRVLSCLHSVCEQCLQILYESCPKYKFISCPTCRRETVLFTDYG
B7: TRIM40 RING domain (UniProt Q6P9F5); chain LQKDNQEEGVCPICQESLKEAVSTNCGHLFCRVCLTQHVEKASASGVFCCPLCRKPCSEEVLG
Target sequence (chain): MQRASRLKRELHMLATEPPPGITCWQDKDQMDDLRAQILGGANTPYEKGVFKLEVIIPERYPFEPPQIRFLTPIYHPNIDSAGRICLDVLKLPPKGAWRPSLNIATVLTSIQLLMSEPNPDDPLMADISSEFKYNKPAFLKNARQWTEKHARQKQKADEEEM
B1 (DTX4 RING domain): 0
B2 (TRIM13 RING domain): 0
ASLPTSEEDLCPICYAHPISAVFQPCGHKSCKACINQHLMNNKDCFFCKTTIVSVEDWE (RNF123 RING domain (UniProt Q5XPI4)): 0
B3 (SH3RF2 RING domain): 0
B4 (NEURL1 RING domain): 0
QVDKAVFHMQSVKCLKCQEQKRAVLPCQHAALCELCAEGSECPICQPGRAHTLQS (UNK RING domain (UniProt Q9C0B0)): 0
B5 (VPS41 RING domain): 0
MPIRALCTICSDFFDHSRDVAAIHCGHTFHLQCLIQWFETAPSRTCPQCRIQVGKRTIIN (TRAIP RING domain (UniProt Q9BWF2)): 0
B6 (RNF208 RING domain): 0
B7 (TRIM40 RING domain): 0
GAAPGPEAAECLVCSELALLVLFSPCQHRTVCEECARRMKKCIRCQVVVSKKLRPD (MIB2 RING domain (UniProt Q96AX9)): 0

For quick reference, copied from above (series 2):
GCACGCTA: 0.319
GCGTGCAC: 0.388
CATGCTCA: 0.351
GCCCACGC: 0.375
GCGTGGAC: 0.377
ATGTGGCC: 0.268
AGGCATGG: 0.425
ACGCGCGG: 0.262
ACATGTGA: 0.462
CGTGAAAC: 0.258
CGACCGCC: 0.266
ACATGCCA: 0.381
